Published values gathered from unrelated publications.
Parts stem from different laboratories: compare values within a part only.

Series 1 — effect on: peptide-MHC binding; molecule type: peptide; tested at: concentration not given
Target: HLA class I histocompatibility antigen, A alpha chain, allele A*26:03 (Homo sapiens, UniProt P04439)
| Sequence | binding |
| --- | --- |
| IHIPGDTLF | inactive |
| LYNTIAVLY | inactive |
| YISPIFIPM | active |
| RYSNFAWYF | inactive |
| RELYYRLKF | inactive |
| STYQPLPLY | inactive |
| IYCGFKFAW | inactive |
| SEINNLNLT | inactive |
| TKDAERGKL | inactive |
| AKYEICLEK | inactive |
| FYLFTFTIY | inactive |
| QVFKGVVIR | inactive |
| KYFDDVTAF | inactive |
| CVFKFIVAK | inactive |
| GTIIAHGGL | inactive |
| WQFAIHYSF | inactive |
| FVFEATKLY | inactive |
| ISDPLTSGL | inactive |
| TTARPRPPM | inactive |
| VLYCVHQEI | inactive |
| RRCPHHERC | inactive |
| LLRRRPYPL | inactive |
| NQQVTNSKY | inactive |
| FLMRNAIQY | inactive |
| LYNTVATLY | inactive |

Series 2 — technique: aptamer microarray, sandwich; molecule type: DNA with 2'F-ANA; medium: in vitro; tested at: 200 nM; together with: Cy3 exosite-II aptamer, 400 nM; reading: higher = stronger binding; sequence: GGTTGGTGTGGTTGG
Target: Prothrombin, mature alpha-thrombin (F2, Homo sapiens, UniProt P00734)
Setting: whole 15-mer aptamer, many near background
| Modification | mean fluorescence intensity [a.u.] |
| --- | --- |
| 2'F-ANA at 5 7 8 10 11 13 14 15 | 49.7 |
| 2'F-ANA at 1 3 4 6 11 12 13 14 15 | 71.3 |
| 2'F-ANA at 1 4 5 8 9 10 11 12 13 15 | 43.2 |
| 2'F-ANA at 4 5 10 11 12 14 | 46.4 |
| 2'F-ANA at 5 7 8 12 14 | 56.5 |
| 2'F-ANA at 1 3 7 8 10 14 15 | 60.6 |
| 2'F-ANA at 3 4 7 8 9 12 13 14 | 381 |
| 2'F-ANA at 2 3 4 6 7 9 11 13 | 301 |

Series 3 — tested at: 0.1 µM; baseline: DMSO
SMILES: CNC(=N)NCCC[C@H](NC(=O)[C@H](CC(C)C)NC(=O)NNC(=O)[C@H](Cc1ccccc1)NC(=O)[C@H](CO)NC(=O)[C@H](CC(N)=O)NC(=O)[C@@H](Cc1cccnc1)NC(=O)[C@H](N)Cc1ccc(O)cc1)C(=O)NCC(N)=O
| cell line | setting | viability |
| --- | --- | --- |
| sample B colorectal tumour organoid | replicate 1 | 107% |
| sample I colorectal tumour organoid | replicate 2 | 120% |
| sample I colorectal tumour organoid | replicate 1 | 135% |
| colorectal tumour organoids | – | 105% |

Series 4 — technique: protein-binding microarray; molecule type: double-stranded DNA, one strand shown; medium: in vitro; tested at: 940 nM top; setting: 60-bp whole probe; together with: salmon DNA 0.4 mg/ml; baseline: random background probes; reading: higher = stronger binding; all sequences stand within: GCCTAGCAC … GTCTTGATTCGCTTGACGCTGCTG
Target: Interferon regulatory factor 5, full length, phosphomimetic (IRF5, Homo sapiens, UniProt Q13568-2, residues 1-514, S451D/S453D/S456D/S462D)
| Sequence | fitted relative affinity [z-score] |
| --- | --- |
| TTAGATCTCAGTCTCGAATAGTGCTAG | 1.14 |
| GACGGTTTCCTTTCCCTGTCGTGCTAG | 4.14 |
| GACGATCTCCTTATCCTGACGTGCTAG | 0.646 |
| TACTGCTGGAGCTCAAGAGCGTGCTAG | -0.751 |
| CTTTCTCCCAAGTCTTGTTTTGTGCTA | 1.59 |
| GACGGTATCGACTGTCGGGACGTGCTA | 4.48 |
| GACGAACCGAGTATCGAGACGTGCTAG | 1.55 |
| TCATAAGCAAAAATGATACTGTGCTAG | 0.173 |

Series 5 — technique: RNA Bind-n-Seq; molecule type: RNA; medium: in vitro; tested at: 1 µM; setting: whole 134-nt RNA, ends assumed; together with: 150 mM KCl; baseline: input library; reading: higher = stronger binding
Target: Ras GTPase-activating protein-binding protein 1, C-terminal RGG region (G3BP1, Homo sapiens, UniProt Q13283)
Sequence of UniProt Q13283 (whole entry, looked up): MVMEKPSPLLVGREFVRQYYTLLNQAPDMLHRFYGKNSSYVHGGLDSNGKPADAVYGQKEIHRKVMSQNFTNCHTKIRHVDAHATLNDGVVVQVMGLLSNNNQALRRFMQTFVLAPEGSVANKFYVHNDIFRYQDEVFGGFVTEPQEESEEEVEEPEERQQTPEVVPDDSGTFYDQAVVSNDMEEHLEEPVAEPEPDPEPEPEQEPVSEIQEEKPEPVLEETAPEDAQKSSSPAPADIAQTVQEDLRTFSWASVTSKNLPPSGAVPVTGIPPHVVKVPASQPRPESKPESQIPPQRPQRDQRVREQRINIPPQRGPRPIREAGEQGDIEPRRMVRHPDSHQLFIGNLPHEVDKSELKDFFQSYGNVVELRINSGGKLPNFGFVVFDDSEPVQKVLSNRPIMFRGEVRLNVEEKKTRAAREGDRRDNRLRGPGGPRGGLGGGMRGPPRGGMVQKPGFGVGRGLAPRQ
All sequences stand within: GGGAGUUCUACAGUCCGACGAUC … UGGAAUUCUCGGGUGUCAAGG
| Sequence | log2 enrichment |
| --- | --- |
| UGUGGCCGCAGGACGAGUACAUCGUGGAGUACUCACUAGAGUAUGGCUUCCUUCGCCUGUCGCAGGCCACCCGCCAGCGCCUGAGCAUCC | 0.344 |
| UGGCCCUGGUGGCAUGCGGGGAGGAAGAGGUGGCCUCAUGGAUAGUGGUGGUCCCGGUGGAAUGUUCAGAGGUGGCCGUGGUGGAGACAG | 2.36 |
| CCUGUGCUACACAUCGUAUGUACCGAAUCGGGGAAAAAGGGGUUUUUUUGGGGUUUGGGGAAAGUAUUAUGUUACGCCGUUCGGAUCUGC | 0.272 |
| CCUGUGCUACACAUCGUAUGUACCGAAUCGGAAAAAAAGGGAAAAAAAGGGGAAAAAAAGGAAAGUAUUAUGUUACGCCGUUCGGAUCUG | -1.68 |
| UGGGAGGUGGAUUUUGUUUAUUUAUUUAGCUCAUUUCCAGGGGUGGGAAUUUUUUUUUAAUAUGUGUCAUGAAUAAAGUUGUUUUUGAAA | 2.79 |
| CCUCAAGUCCUGUGCUACACAUCGUAUGUACCGAAUCGGCCGGCCGGCCGGGAAAGUAUUAUGUUACGCCGUUCGGAUCUGCACUUCCAG | -1.32 |
| AAGUCCUGUGCUACACAUCGUAUGUACCGAAUCGGGCCCCGGGCCCCGGCCCCGGGAAAGUAUUAUGUUACGCCGUUCGGAUCUGCACUU | -2.38 |
| CCUCAAGUCCUGUGCUACACAUCGUAUGUACCGAAUCGGAAGGAAGGGAAGGGAAAGUAUUAUGUUACGCCGUUCGGAUCUGCACUUCCA | -1.34 |

Series 6 — cell line: HEK-293T/ACE2; tested at: 10 µM; time: 16 h; baseline: vehicle
| SMILES | viability |
| --- | --- |
| CCC(=O)OCC(=O)[C@@]1(OC(=O)CC)[C@@H](C)C[C@H]2[C@@H]3CCC4=CC(=O)C=C[C@]4(C)[C@@]3(F)[C@@H](O)C[C@@]21C | 101% |
| CCCNC(C)C(=O)Nc1ccccc1C (centres unmarked) | 99.3% |
| NC(=O)N1c2ccccc2C=Cc2ccccc21 | 99.5% |

Repeated from above (series 2):
| Modification | mean fluorescence intensity [a.u.] |
| --- | --- |
| 2'F-ANA at 1 3 7 8 10 14 15 | 60.6 |
| 2'F-ANA at 2 3 4 6 7 9 11 13 | 301 |
| 2'F-ANA at 5 7 8 10 11 13 14 15 | 49.7 |
| 2'F-ANA at 1 3 4 6 11 12 13 14 15 | 71.3 |
